Measurements collected from several papers.
A part holds a random share of what one study measured. Positions count from the first letter of the parent shown.

Sample 1
Target: UBE2V2 UBC core domain (UniProt Q15819)
UniProt Q15819, sequence (whole entry, looked up): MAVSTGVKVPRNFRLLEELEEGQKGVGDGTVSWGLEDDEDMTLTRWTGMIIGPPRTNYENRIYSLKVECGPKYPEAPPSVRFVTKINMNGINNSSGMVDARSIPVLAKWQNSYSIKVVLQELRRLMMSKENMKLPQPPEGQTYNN
Method: yeast two-hybrid
Sample: yeast
Notes: mostly zero background
Relative to: not given
Reading: higher = stronger interaction
B1: RFPL3 RING domain (UniProt O75679); chain MAALFQEASSCPVCSDYLEKPMSLECGCTVCLKCINSLQKEPHGEDLLCCCCSMVSQRNKIRP
B2: NHLRC1 RING domain (UniProt Q6VVB1); chain MREAEISLLECKVCFEKFGHRQQRRPRNLSCGHVVCLACVAALAHPRTLALECPFCRRACRGCDTSD
B3: RNF130 RING domain (UniProt Q86XS8); chain DKETDPDFDHCAVCIESYKQNDVVRILPCKHVFHKSCVDPWLSEHCTCPMCKLNILKALGIV
B4: UBE4B RING domain (UniProt O95155); chain KNARAEIDYSDAPDEFRDPLMDTLMTDPVRLPSGTIMDRSIILRHLLNSPTDPFNRQTLTESMLEPVPELKEQIQAWMREKQNSDH
B5: CBLL1 RING domain (UniProt Q75N03); chain GEKDDTPVHFCDKCGLPIKIYGRMIPCKHVFCYDCAILHEKKGDKMCPGCSDPVQRIEQCT
B6: RNF32 RING domain (UniProt Q9H0A6); chain VQALRRETHECSICLAPLSAAGGQRVGAGRRSREMALLSCSHVFHHACLLALEEFSVGDRPPFHACPLCRSCYQKKILEC
B7: RNF115 RING domain (UniProt Q9Y4L5); chain TQEQVDMGLECPVCKEDYTVEEEVRQLPCNHFFHSSCIVPWLELHDTCPVCRKSLNGEDSTR
B8: RNF17 RING domain (UniProt Q9BXT8); chain SQPWGAAEIQCTRCGRRVSRSSGHHCELQCGHAFCELCLLMTEECTTIICPDCEVATAVNTRQR
Sequence	lacZ reporter activity
EDVLSKDAGECAICLEELQQGDTIARLPCLCIYHKGCIDEWFEVNRSCPEHPSD (ZNRF2 RING domain (UniProt Q8NHG8))	0
SNNDLASLFECPVCFDYVLPPILQCQSGHLVCSNCRPKLTCCPTCRGPLGSIRNLA (SIAH1 RING domain (UniProt Q8IUQ4))	0
B1 (RFPL3 RING domain)	0
B2 (NHLRC1 RING domain)	0
B3 (RNF130 RING domain)	0
B4 (UBE4B RING domain)	0
GSEEEEIPFRCFICRQAFQNPVVTKCRHYFCESCALEHFRATPRCYICDQPTGGIFNPA (RNF113B RING domain (UniProt Q8IZP6))	0
B5 (CBLL1 RING domain)	0
B6 (RNF32 RING domain)	0
B7 (RNF115 RING domain)	0
B8 (RNF17 RING domain)	0

Sample 2
Target: MAFF, bZIP domain (human)
Method: DHFR protein complementation
Sample: yeast
Notes: single substitutions, most at no-binding floor
Relative to: wild-type JUN-FOS pair
Reading: higher = stronger binding
Parent: JUN, bZIP domain (human); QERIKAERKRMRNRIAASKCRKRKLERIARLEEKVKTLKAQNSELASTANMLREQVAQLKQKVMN; partner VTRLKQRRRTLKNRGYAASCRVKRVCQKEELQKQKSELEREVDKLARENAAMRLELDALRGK
Substitution	binding fitness [natural log]
S43E	-1.18
L38S	-1.44
A29T	-1.34
Q55E	-1.44
A46H	-1.51
N42T	-1.45
M51N	-1.51
V56G	-1.46
L59C	-1.56
M51D	-1.29
N42M	-1.3
E32C	-1.39
L45T	-1.5
K39P	-1.52
I28W	-1.49
S43L	-1.4
A40C	-1.31
M51E	-1.44
S47F	-1.38
A29G	-1.44
Q41N	-1.55
K39E	-1.37
L59H	-1.56
A29I	-1.29

Sample 3
Target: Ras GTPase-activating protein-binding protein 1, C-terminal RGG region (G3BP1, Homo sapiens, UniProt Q13283)
UniProt Q13283, sequence (whole entry, looked up): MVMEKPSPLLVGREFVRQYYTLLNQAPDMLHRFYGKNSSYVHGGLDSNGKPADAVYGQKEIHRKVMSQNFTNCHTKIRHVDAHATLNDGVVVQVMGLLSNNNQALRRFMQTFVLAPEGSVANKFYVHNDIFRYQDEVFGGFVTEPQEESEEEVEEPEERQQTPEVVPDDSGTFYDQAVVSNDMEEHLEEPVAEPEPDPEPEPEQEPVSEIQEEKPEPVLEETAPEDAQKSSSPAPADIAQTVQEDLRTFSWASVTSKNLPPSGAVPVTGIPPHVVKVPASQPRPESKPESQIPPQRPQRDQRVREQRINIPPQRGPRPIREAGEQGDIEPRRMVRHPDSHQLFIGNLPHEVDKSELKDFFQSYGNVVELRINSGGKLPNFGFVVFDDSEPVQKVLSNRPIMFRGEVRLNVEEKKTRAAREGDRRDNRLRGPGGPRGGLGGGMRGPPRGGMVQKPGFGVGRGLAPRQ
Method: RNA Bind-n-Seq
Molecule type: RNA
Sample: in vitro
Concentration: 1 µM
Notes: whole 134-nt RNA, ends assumed
Together with: 150 mM KCl
Relative to: input library
Reading: higher = stronger binding
All sequences stand within: GGGAGUUCUACAGUCCGACGAUC … UGGAAUUCUCGGGUGUCAAGG
Oligonucleotide	log2 enrichment
GGCAGGAGGAAGAGCGCAGGCGCCGUGAAGAAGAGAUGCGGCGGCAGCAAGAAGAAAUGAUGCGGCGACAGCAGGAAGGAUUCAAGGGAA	-0.436
AGUCCUGUGCUACACAUCGUAUGUACCGAAUCGGGAAAGGGAAAAAGGGAAAAAGGGAAAGUAUUAUGUUACGCCGUUCGGAUCUGCACU	0.297
UAACUUUAGAGGAGGAUCUGAUGGAUAUGGCAGUGGACGUGGAUUUGGGGAUGGCUAUAAUGGGUCUGGAGGAGGACCUGGAGGUGGCAA	-0.921
ACCAUGCAGGUGGGCAUCUUUGGGAAGUGGGGCAAGGGGGGGAUAGGGAAGGGGGUAACACUUUGGGAACAGGUGGUCCCAGGUCGUUUC	2.39
UGGCCCUGGUGGCAUGCGGGGAGGAAGAGGUGGCCUCAUGGAUCGUGGUGGUCCCGGUGGAAUGUUCAGAGGUGGCCGUGGUGGAGACUG	3.22
AGUCCUGUGCUACACAUCGUAUGUACCGAAUCGGGAAAAGGGAAAAGGGAAAAGGGGAAAGUAUUAUGUUACGCCGUUCGGAUCUGCACU	1.27
CUGUGCUACACAUCGUAUGUACCGAAUCGGAAAAAAAGGGAAAAAAAGGGGAAAAAAAGGGAAAGUAUUAUGUUACGCCGUUCGGAUCUG	-1.41
UGGCCCUGGUGGCAUGCGGGGAGGAAGGGGUGGCCUCAUGGAUCGUGGUGGUCCCGGUGGAAUGUUCAGAGGUGGCCGUGGUGGAGACAG	1.93
GUCCUGUGCUACACAUCGUAUGUACCGAAUCGGGGUUUUUGGGGAAAAAGGGGAGGGGAAAGUAUUAUGUUACGCCGUUCGGAUCUGCAC	2.24

Sample 4
Target: CCNA2, cyclin fold, Cln2 fusion (human)
Method: yeast growth competition, sequencing
Sample: yeast
Notes: strong parent motif
Relative to: not given
Reading: higher = stronger binding
Parent: SAMHD1 docking peptide (human); ASKSRVQLFKDDP; partner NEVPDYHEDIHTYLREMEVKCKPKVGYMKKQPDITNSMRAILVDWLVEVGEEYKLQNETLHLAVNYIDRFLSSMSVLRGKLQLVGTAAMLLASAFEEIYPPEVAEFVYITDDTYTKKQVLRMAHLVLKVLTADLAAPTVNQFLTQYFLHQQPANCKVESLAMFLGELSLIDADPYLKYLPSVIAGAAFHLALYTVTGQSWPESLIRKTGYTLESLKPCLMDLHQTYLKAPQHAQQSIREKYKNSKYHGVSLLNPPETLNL
Substitution	normalised enrichment score
ASKSRVQLYKDDP [F9Y]	0.451
ASKSRVQLFKDSP [D12S]	3.24
ASKSRVQIFKDDP [L8I]	-0.0363
ASKSRHQLFKDDP [V6H]	0.57
AYKSRVQLFKDDP [S2Y]	2.95
ASGSRVQLFKDDP [K3G]	1.41
ASKSDVQLFKDDP [R5D]	-0.451
ASKSPVQLFKDDP [R5P]	-0.787
AHKSRVQLFKDDP [S2H]	3.39
ASKSRVQLFFDDP [K10F]	2.65
ASKSKVQLFKDDP [R5K]	1.47
ASKSRVQLFVDDP [K10V]	2.25
ASKSTVQLFKDDP [R5T]	-0.14
ASKSREQLFKDDP [V6E]	-0.108
ASKSLVQLFKDDP [R5L]	2.49
ASKSRVQLFKWDP [D11W]	1.01

Excerpt of the above (sample 4):
Substitution	normalised enrichment score
ASKSRHQLFKDDP [V6H]	0.57
AYKSRVQLFKDDP [S2Y]	2.95
ASGSRVQLFKDDP [K3G]	1.41
ASKSDVQLFKDDP [R5D]	-0.451
ASKSPVQLFKDDP [R5P]	-0.787
AHKSRVQLFKDDP [S2H]	3.39
ASKSRVQLFFDDP [K10F]	2.65
ASKSKVQLFKDDP [R5K]	1.47
ASKSRVQLFVDDP [K10V]	2.25
